Results from different studies.
A part holds a random share of what one study measured.

Sample 1 — technique: aptamer microarray, sandwich; molecule type: DNA with 2'F-ANA; sample: in vitro; concentration: 200 nM; together with: Cy3 exosite-II aptamer, 400 nM; direction: higher = stronger binding; measurement: mean fluorescence intensity; strand: GGTTGGTGTGGTTGG
Target: Prothrombin, mature alpha-thrombin (F2, Homo sapiens, UniProt P00734)
Notes: whole 15-mer aptamer, many near background
2'F-ANA at 2 3 5 8 10 11 14: 125 a.u.
2'F-ANA at 1 6 7 10 12 13 14 15: 53 a.u.
2'F-ANA at 1 3 4 7 8 9 10 12 14: 132 a.u.
2'F-ANA at 5 6 9 10 11: 47.1 a.u.
2'F-ANA at 1 7 8 10 14 15: 46.9 a.u.
2'F-ANA at 1 2 4 6 10 11 12 13 14: 53.7 a.u.
2'F-ANA at 1 2 3 4 6 7 9 10 11 12 13: 67.1 a.u.
2'F-ANA at 1 2 4 6 7 9 11 13 14 15: 50.1 a.u.
2'F-ANA at 2 4 7 12 14: 203 a.u.
2'F-ANA at 1 3 4 5 8 9 10 11 14: 56.3 a.u.
2'F-ANA at 3 6 7 8 9 10 12: 529 a.u.
2'F-ANA at 3 4 5 6 7 9 12 15: 214 a.u.
2'F-ANA at 3 4 6 8 11 12 13 14: 267 a.u.
2'F-ANA at 1 2 5 6 7 8 9 13: 74.5 a.u.
2'F-ANA at 2 4 5 6 10 15: 47.3 a.u.
2'F-ANA at 1 2 3 6 7 8 12 13 14 15: 93.4 a.u.
2'F-ANA at 1 2 7 11 12 14: 78.4 a.u.
2'F-ANA at 1 5 11 12 15: 82.1 a.u.
2'F-ANA at 1 2 6 11 13 14 15: 77.7 a.u.
2'F-ANA at 2 3 4 5 6 9 10 11 13 14: 64.5 a.u.
2'F-ANA at 3 4 5 6 10: 53.3 a.u.
2'F-ANA at 1 2 3 4 7 8 9 11 12 13 14: 70.9 a.u.
2'F-ANA at 2 7 8 9 10 11 13: 113 a.u.

Sample 2 — technique: RNA Bind-n-Seq; molecule type: RNA; sample: in vitro; concentration: 365 nM; reference: no-protein control; direction: higher = stronger binding; measurement: RBNS enrichment (R)
Target: RNA binding protein fox-1 homolog 2, RRM domain, GST-SBP tag (RBFOX2, Homo sapiens, UniProt O43251-10, residues 100-194)
Notes: natural RNA segment, single round, ends assumed
Constant ends, left off below: GGGAGUUCUACAGUCCGACGAUC … UGGAAUUCUCGGGUGCCAA
Target sequence (chain): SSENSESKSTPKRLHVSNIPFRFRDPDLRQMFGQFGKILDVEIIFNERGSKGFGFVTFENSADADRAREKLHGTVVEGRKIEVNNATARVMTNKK
UUAAAUGAAAAUUCUUCAGAAAAAGUUUGAUAAAUUGAAUUGUGGUUAUGAAACUAAUUUGCAUUUUUAUUUGCUUAAGAAAGAAAGCUGUGAUAGAUUCCAGAUAUGCU: 3.89
AUUUUGUAGGACUUUUAAUUGUAAUGAUAGAGAAAAAAACAAGGAAAACUAUUUAAUGAAAGCACGAUAUUUAUCUUUGGUAAAUGACUUUAGAGCAGUUAAAGACAUUG: 7.4
GGUUCUGCUGCCUCUACACAGGGGCCCUGUACAGUGAAUGGUGCCAUUUUCGAAGGAGCAGUGUGACCUCCUGUGACCCGUGAAUGUGCCUCCAAGCGGCCCUGUGUGUU: 0.551
AAACCCAAAACAAACAAACAAGACGAAGGGCAGCACUGGGAAGGUUUUGUAACCUUUAGUGGGUUCCACGGUUGAGAUUUAGCACUGGAGCCAGGCAUGGUGGUAUACUC: 1.03
UUGUUGAAUGACUCCUUUUGGAAAGUUUAAACUCUGACAUGGCAUUGCCCUGGAAGUCUUGCCCCAUCAUUUAACAAGGAACUCAAGUAGGAAAUGAGUGACAUCAAGUC: 0.317
CAUAGGAAAUACUUGAUUUAAUUACAGGUCCAGGGAUGAGCUGAUGGUUGCUGGAGGAGGCCAGUGUAGAGCCAGUGAGAGAACUAGGAAUGACACUCAGGUUCACUGUG: 1.01
UGUUGACCACAUACAGCAGGCAGCUUCACGUCCUCCCGCUAACAUCUGCUGCCUUAGACCUGGGUGGGAUGUCUUGCUUAUUUGAAAUGUGUAGUGUUGAUUGACACAUU: 0.772
CAUUCUGUGCCUCUGGCUUGGCUGAACAGUUCUGGAAUUACCACCAGAAUCCUUGACUCCCUGCCCCUUGUAUAAAUUGGACAGCUUAGGACUUUUAAACUUUAGAUCAA: 0.3
GAAUCACUUUUGUGUUUGAUAUAGUAAAACAAUGUGAUUCAUUCCAAAGUAACAGAAGGUUAUUUGUAAGAAAGUUAAAGGCUUGUGAACAAAGAAAGCUAAGCUGUUGU: 0.425
ACUUUGUAAUGCUCUUUUGUAACUAUCGACAAAGGUGUGGGGAAGCUGAGGUCUAGGUCUUCUUAAAGGUCAAGUCUGCUCUCCCUCGCCUAAAGUGCAGCAGCAGCUCC: 0.305
GUUCGUACUUGGUGACAAAUUGAGACUGCUGCUGGAUUCAGAUUGACAAGAUUUUCUUGGAUUUUUUUUUUAUACGAAAAUCAAAAUUUCAAUCAGUCUCGUGCUCUGUC: 0.557
ACUAAUGAAACAUUUAGAAAAACCCAGCUGUACCCAUAAGUGUUUAAAAAGAUAAACGGAUUUGAGCCUCCCUGAUUUCAAUCAAGAGCCCUGUGUGUGGAAUUCCAGAU: 0.395

Sample 3 — technique: protein-binding microarray; molecule type: double-stranded DNA, one strand shown; sample: in vitro; concentration: not given; direction: higher = stronger binding; measurement: E-score
Target: Transcriptional repressor CTCF (CTCF, Homo sapiens, UniProt P49711, residues 1-727, full length assumed)
UniProt P49711, sequence (whole entry, looked up): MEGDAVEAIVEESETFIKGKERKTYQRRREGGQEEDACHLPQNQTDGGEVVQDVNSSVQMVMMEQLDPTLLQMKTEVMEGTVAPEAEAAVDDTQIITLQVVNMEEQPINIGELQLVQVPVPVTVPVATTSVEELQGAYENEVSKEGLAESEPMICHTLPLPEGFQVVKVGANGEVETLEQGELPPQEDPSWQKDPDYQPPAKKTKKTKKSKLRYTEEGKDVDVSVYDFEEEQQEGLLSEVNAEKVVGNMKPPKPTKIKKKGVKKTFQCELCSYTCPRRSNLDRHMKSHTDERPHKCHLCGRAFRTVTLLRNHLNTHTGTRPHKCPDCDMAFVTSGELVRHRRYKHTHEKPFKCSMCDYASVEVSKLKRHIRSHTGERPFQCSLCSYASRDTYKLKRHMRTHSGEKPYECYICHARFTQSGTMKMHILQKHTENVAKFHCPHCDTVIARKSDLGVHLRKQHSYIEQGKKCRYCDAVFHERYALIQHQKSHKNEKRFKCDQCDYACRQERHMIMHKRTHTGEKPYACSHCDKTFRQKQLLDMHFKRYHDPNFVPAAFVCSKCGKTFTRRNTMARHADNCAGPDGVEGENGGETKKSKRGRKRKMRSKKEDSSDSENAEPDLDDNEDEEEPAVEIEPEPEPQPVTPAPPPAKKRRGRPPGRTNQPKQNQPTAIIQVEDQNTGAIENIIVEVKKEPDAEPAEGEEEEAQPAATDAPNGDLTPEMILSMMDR
Notes: k-mer, scored over probes, only values ≥0.25
AAATTTAT: 0.288
TACAAAAA: 0.336
AATAATAA: 0.33
ACTGTATA: 0.302
AATAATGA: 0.279
GGGCGCCA: 0.411
CCTAGCGC: 0.252
ATGGTAAT: 0.251
ATGCGCCA: 0.468
AATAGATA: 0.261
TAAATAAA: 0.355
ACAAAATA: 0.314
CGCGCGCG: 0.32
ACTGCGCA: 0.354
ACAATGCG: 0.264
CTGCGCCA: 0.327
ATTATACG: 0.307
AATACAAA: 0.397

Sample 4 — technique: universal PBM; molecule type: double-stranded DNA, one strand shown; sample: in vitro; concentration: not given; direction: higher = stronger binding; measurement: E-score
Target: Sal-like protein 4, full length isoform B (SALL4, Homo sapiens, UniProt Q9UJQ4-2, residues 1-616)
Notes: 8-mer, flanks averaged, mean of replicates
ATGGTGTG: 0.0522
GACGACGA: -0.0221
CAACTAGG: -0.0374
CACAGCCG: -0.247
CGGACCTC: -0.313
CACTATCA: 0.0959
ATTCTATG: 0.201
TCTCATAA: 0.307
CGATCTGA: -0.0158
CAAGATCA: -0.0358
CTTTTACC: 0.0604
CGTTTTTA: 0.126
CAGCGGAC: -0.268
ACGCCGAG: -0.317
GGAGCGAC: -0.223
GATCCCAA: -0.117
AATCAATA: 0.368
AATGGTAA: 0.231
CGGTGGTC: -0.268
TAGTGGCA: -0.0434
ATCGTTAC: 0.0795

Sample 5 — technique: DNA-protein interaction ELISA; molecule type: double-stranded DNA, one strand shown; sample: in vitro, bacterial lysate; concentration: not given; notes: whole dsDNA probe, crude lysate protein; reference: highest signal in screen; direction: higher = stronger binding; measurement: relative absorbance
Target: Probable WRKY transcription factor 50, DNA-binding domain (WRKY50, Arabidopsis thaliana, UniProt Q8VWQ5, residues 99-173)
Construct (chain): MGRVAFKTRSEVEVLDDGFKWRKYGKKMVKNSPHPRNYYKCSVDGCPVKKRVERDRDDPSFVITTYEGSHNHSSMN
AAAAAATTGGCACACATGATCTCGGGAAAA: 8.37 % of maximum
AAAAAAAGGTCATTGCTGCTGGTGTTAAAA: 63.4 % of maximum
AAAAAATTCGTATCTGTACCCTATGCAAAA: 36.2 % of maximum
AAAAAAAGTTACCAGTACGCGTCGGGAAAA: 15.7 % of maximum
AAAAAAGGAAAACGAGTTCATCTGGTAAAA: 20.5 % of maximum
AAAAAATAATATCGATACTCATGCCCAAAA: 17.7 % of maximum
AAAAAATTACTCCTAGCCCTCATTCAAAAA: 42.1 % of maximum
AAAAAAGGGTCGCTGTGAGCTCATGAAAAA: 10.5 % of maximum
AAAAAAACCGCGTCGCGGCCCGGGAAAA: 23.1 % of maximum
AAAAAAGCTTCGCGCCAGCGGGAAAA: 18.9 % of maximum
AAAAAATGTGCCCGTGTGTGCTCGCGAAAA: 13.8 % of maximum
AAAAAATAGCGACTTCGACTCTCAGTAAAA: 26.2 % of maximum
AAAAAATTTGTACTTTAAGTTTACATAAAA: 13.7 % of maximum
AAAAAACTACCTCTACTCTAGCCTTAAAAA: 15.2 % of maximum
AAAAAAGGACGTCTTCGGTATGAGTGAAAA: 43.6 % of maximum
AAAAAACTGTGTCCCCGTCCCATCTCAAAA: 13.3 % of maximum
AAAAAATGGTTTCAATTTTCCGTCCGAAAA: 17.9 % of maximum

Sample 6 — technique: protein binding microarray; molecule type: double-stranded DNA, one strand shown; sample: in vitro; concentration: not given; reference: not given; direction: higher = stronger binding; measurement: E-score
Target: Histone acetyltransferase KAT6A, winged helix 2, GST fusion (KAT6A, Homo sapiens, UniProt Q92794, residues 85-181)
Notes: 8-mer, flanks averaged, mean of 2 arrays, mostly near background
Residues (chain): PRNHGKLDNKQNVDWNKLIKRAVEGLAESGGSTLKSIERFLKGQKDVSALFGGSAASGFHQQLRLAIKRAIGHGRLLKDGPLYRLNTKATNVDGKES
ACTACAAA: -0.0124
GACGGCGA: 0.132
AGCCGTAT: 0.0159
CGATACGC: -0.0704
CAGAACGC: 0.0596
AACTGTTC: 0.0439
ACTACTAC: -0.166
GCCCGAAC: 0.14
AAAGCTAG: -0.0942
CTCTATTC: 0.0285
GATGCATC: 0.00128
GTAAGCAC: -0.0219
CAGTACAA: -0.131
CCACTGTC: -0.125
AAGACACA: -0.0598
CAGTTAGC: -0.0904
AGAATAGG: -0.0337
GAATGCGC: 0.104
CGGGCCAC: 0.0625
GGTGCTGA: 0.0393
CAGGTTGC: -0.0102
CAACAACA: 0.234
GAAAAATA: -0.102
GGTGTCGA: 0.024
TCCTAAGA: -0.0478

Repeated from above (sample 6):
GACGGCGA: 0.132
AGCCGTAT: 0.0159
CGATACGC: -0.0704
CAGAACGC: 0.0596
AACTGTTC: 0.0439
ACTACTAC: -0.166
GCCCGAAC: 0.14
AAAGCTAG: -0.0942
CTCTATTC: 0.0285
GATGCATC: 0.00128
GTAAGCAC: -0.0219
CAGTACAA: -0.131
CCACTGTC: -0.125
AAGACACA: -0.0598
CAGTTAGC: -0.0904
AGAATAGG: -0.0337
GAATGCGC: 0.104
CGGGCCAC: 0.0625
